Measured values pooled from the literature.
Each line is one published result; not all experiments were run side by side. “And” joins repeats or separate records; there may be more than shown. ± marks the error that the study gave.

Structure (SMILES) | test | system | conditions | Cmax
C[C@]12C=CC(=O)C=C1CC[C@@H]1[C@@H]2[C@@H](O)C[C@@]2(C)[C@H]1C[C@H]1O[C@@H](C3CCCCC3)O[C@]12C(=O)CO |  | children with asthma, serum | inhaled, 80 µg ciclesonide, day 7, HFA-MDI with spacer, steady state | 0.106 ± 0.006 ng/mL
Cc1ccnc2c1NC(=O)c1cccnc1N2C1CC1 |  | olive baboon female, serum | oral, 10 mg/kg, solution | 594 ± 371 ng/mL
CCCC[C@H](NC(C)=O)C(=O)N[C@H]1CCC(=O)NC[C@@H](C(=O)N[C@@H](Cc2c[nH]c3ccccc23)C(N)=O)NC(=O)[C@H](CCCNC(=N)N)NC(=O)[C@@H](Cc2ccccc2)NC(=O)[C@H](Cc2c[nH]cn2)NC1=O |  | healthy volunteers, plasma | subcutaneous, 3.0 mg once daily, day 7, steady state geometric mean | 57.2 ng/mL
NC(=O)c1cnc2[nH]ccc2c1N[C@@H]1[C@@H]2CC3C[C@H]1C[C@@](O)(C3)C2 |  | Japanese, normal hepatic function, plasma | oral, 150 mg single dose, mean | 350 ng/mL
CCOc1ccc(Cc2cc([C@@H]3S[C@H](CO)[C@@H](O)[C@H](O)[C@H]3O)c(OC)cc2C)cc1 |  | Japanese type 2 diabetes patients, plasma | oral, 5 mg single dose, eGFR ≥90 mL/min/1.73 m^2 | 272 ± 86.4 ng/mL
CS(=O)(=O)n1cc2c(n1)CN([C@H]1CO[C@H](c3cc(F)ccc3F)[C@@H](N)C1)C2 |  | healthy Japanese men, plasma | oral, 50 mg once weekly, day 1 | 1080 nM
CCOc1ccc2cc(-c3nn(CC4CCN(C)CC4)c4ncnc(N)c34)ccc2c1 | LC-MS/MS | Neospora caninum-infected pregnant sheep, plasma | oral, 100 mg/kg, after dose 4 | 2700 ± 900 nM
CC1=C2C[C@H]3[C@@H](CC[C@@H]4C[C@H](NS(C)(=O)=O)CC[C@@]43C)[C@@H]2CC[C@@]2(C1)O[C@@H]1C[C@H](C)CN[C@H]1[C@H]2C |  | patients, plasma | oral, 90 mg single, day -7, cycle 1 | 20.2 ng/mL
CC(=O)Nc1ccc(O)cc1 |  | healthy volunteers, both sexes, plasma | oral, 650 mg, day 6, added: favipiravir 800 mg, extended | 9900 ng/mL
Cn1cnc2c(F)c(Nc3ccc(Br)cc3Cl)c(C(=O)NOCCO)cc21 |  | ESRD on hemodialysis, plasma | oral, 50 mg single dose, dosed 1 h before dialysis | 507 ng/mL
COc1cccc(N2CCN(C3=Nc4c(F)cccc4[C@H](CC(=O)O)N3c3cc(C(F)(F)F)ccc3OC)CC2)c1 | UHPLC-MS/MS | healthy women, plasma | intravenous infusion, 960 mg single dose, 60 min infusion, HPβCD formulation | 57200 ± 7620 ng/mL
N[C@@H](Cc1ccc(O)c(O)c1)C(=O)O |  | rhesus and cynomolgus macaque, plasma | subcutaneous, dose not given, PDE9 inhibitor vehicle co-dosed | 86.5 ng/mL and 79.2 ng/mL
CC(C)(Sc1ccncc1-c1ccc(C#N)c2ccccc12)C(=O)O |  | healthy Japanese male subjects, plasma | oral, 5 mg single dose, day 1, fasted, geometric mean | 7.3 ng/mL
Cc1ccc(Sc2ccccc2N2CCNCC2)c(C)c1 |  | healthy women, plasma | oral, 5 mg once daily, fed, day 1 | 2.7 ng/mL
CC(C)=CCC[C@](C)(O[C@@H]1O[C@H](CO)[C@@H](O)[C@H](O)[C@H]1O)[C@H]1CC[C@]2(C)[C@@H]1[C@H](O)C[C@@H]1[C@@]3(C)CC[C@H](O[C@@H]4O[C@H](CO)[C@@H](O)[C@H](O)[C@H]4O)C(C)(C)[C@@H]3CC[C@]12C | LC-MS/MS | healthy female volunteers, serum | oral, 3 g red ginseng | 1.03 ± 0.39 ng/mL
CC(C)c1nc(CN(C)C(=O)N[C@H](C(=O)N[C@@H](Cc2ccccc2)C[C@H](O)[C@H](Cc2ccccc2)NC(=O)OCc2cncs2)C(C)C)cs1 |  | healthy male, plasma | 600 mg single dose, arithmetic mean, added: amenamevir 1200 mg | 12900 ng/mL
COc1ccc2c3c1O[C@H]1C[C@@H](OC(=O)c4ccccc4)C=C[C@@]31CCN(C)C2 |  | healthy elderly men, plasma | intranasal, 22 mg, single dose | 26.5 ng/mL
CC[C@H](C)[C@H](NC(=O)[C@H](CCC(=O)O)NC(=O)[C@H](CO)NC(=O)[C@@H](NC(=O)[C@@H](N)CO)C(C)C)C(=O)N[C@@H](CCC(N)=O)C(=O)N[C@@H](CC(C)C)C(=O)N[C@@H](CCSC)C(=O)N[C@@H](Cc1cnc[nH]1)C(=O)N[C@@H](CC(N)=O)C(=O)N[C@@H](CC(C)C)C(=O)NCC(=O)N[C@@H](CCCCN)C(=O)N[C@@H](Cc1cnc[nH]1)C(=O)N[C@@H](CC(C)C)C(=O)N[C@@H](CC(N)=O)C(=O)N[C@@H](CO)C(=O)N[C@@H](CCSC)C(=O)N[C@@H](CCC(=O)O)C(=O)N[C@@H](CCCN=C(N)N)C(=O)N[C@H](C(=O)N[C@@H](CCC(=O)O)C(=O)N[C@@H](Cc1c[nH]c2ccccc12)C(=O)N[C@@H](CC(C)C)C(=O)N[C@@H](CCCN=C(N)N)C(=O)N[C@@H](CCCCN)C(=O)N[C@@H](CCCCN)C(=O)N[C@@H](CC(C)C)C(=O)N[C@@H](CCC(N)=O)C(=O)N[C@@H](CC(=O)O)C(=O)N[C@H](C(=O)N[C@@H](Cc1cnc[nH]1)C(=O)N[C@@H](CC(N)=O)C(=O)N[C@@H](Cc1ccccc1)C(=O)O)C(C)C)C(C)C |  | postmenopausal women, osteoporosis, plasma | subcutaneous, 56.5 µg once weekly | 0.496 to 0.654 ng/mL
CCN1CCN(Cc2ccc(Nc3ncc(F)c(-c4cc(F)c5nc(C)n(C(C)C)c5c4)n3)nc2)CC1 | population PK model | patients, plasma | oral, 200 mg single dose | 123 ng/mL
Nc1cc(F)ccc1NC(=O)c1ccc(CNC(=O)/C=C/c2cccnc2)cc1 |  | Japanese patients, plasma | oral, 40 mg twice weekly, cycle 1 day 25, arithmetic mean | 385 ng/mL
CN1CCN(c2ccc3nc(-c4c(N)c5c(F)cccc5[nH]c4=O)[nH]c3c2)CC1 |  | patients, plasma | oral, 300 mg daily 5 days on 2 off, day 19, maximum, added: gemcitabine and capecitabine | 313 ng/mL
NC(=O)c1cnc2[nH]ccc2c1N[C@@H]1[C@@H]2CC3C[C@H]1C[C@@](O)(C3)C2 |  | healthy Caucasian men, plasma | oral, 60 mg, single dose fasted | 131 ng/mL
C[C@@H](Oc1ccc(S(C)(=O)=O)cc1C(=O)N1C[C@@H]2C[C@]2(c2cc(C(F)(F)F)on2)C1)C(F)(F)F |  | healthy male volunteers, plasma | oral, 25 mg, geometric mean, added: itraconazole | 366 nM

Structure (SMILES) | test | system | conditions | Cmax
CCOc1cc([C@@H](CS(C)(=O)=O)N2C(=O)c3cccc(NC(C)=O)c3C2=O)ccc1O[C@@H]1O[C@H](C(=O)O)[C@@H](O)[C@H](O)[C@H]1O |  | severe renal impairment patients, plasma | oral, 30 mg of apremilast | 276 ng/mL
C[C@@H](N)c1cc(Cl)ccc1Cn1c(=S)[nH]c(=O)c2[nH]ccc21 |  | healthy Chinese volunteers, plasma | oral, 5 mg once daily, day 10, geometric mean | 39.7 nM
COc1ccc(-n2nc(C(N)=O)c3c2C(=O)N(c2ccc(N4CCCCC4=O)cc2)CC3)cc1 |  | healthy Chinese subjects | oral, 10 mg twice daily, day 9 | 336 ng/mL
Br.Cc1ccc(Sc2ccccc2N2CCNCC2)c(C)c1 |  | healthy adults, plasma | 10 mg at steady state, day 16, added: omeprazole 40 mg single dose | 13.9 ng/mL
CC(C)C(=O)OCC(=O)[C@@]12O[C@H](C3CCCCC3)O[C@@H]1C[C@H]1[C@@H]3CCC4=CC(=O)C=C[C@]4(C)[C@H]3[C@@H](O)C[C@@]12C |  | children with asthma, serum | inhalation with spacer, 80 µg, day 7, steady state | 0.096 ± 0.007 ng/mL
CC(C)=CCC[C@](C)(O[C@@H]1O[C@H](CO)[C@@H](O)[C@H](O)[C@H]1O)[C@H]1CC[C@]2(C)[C@@H]1[C@H](O)C[C@@H]1[C@@]3(C)CC[C@H](O[C@@H]4O[C@H](CO)[C@@H](O)[C@H](O)[C@H]4O[C@@H]4O[C@H](CO)[C@@H](O)[C@H](O)[C@H]4O)C(C)(C)[C@@H]3CC[C@]12C | LC-MS/MS | healthy volunteers, serum | oral, 3 g fermented red ginseng | 16.7 ± 6.95 ng/mL
COc1cc(OC)c(/C=C/S(=O)(=O)Cc2ccc(OC)c(NCC(=O)O)c2)c(OC)c1 |  | cancer patients, phase I, plasma | oral, 280 mg twice daily, day 21 cycle 1 | 730 ± 440 ng/mL
CO[C@H]1C[C@@H]2CC[C@@H](C)[C@@](O)(O2)C(=O)C(=O)N2CCCC[C@H]2C(=O)O[C@H]([C@H](C)C[C@@H]2CC[C@@H](OP(C)(C)=O)[C@H](OC)C2)CC(=O)[C@H](C)/C=C(\C)[C@@H](O)[C@@H](OC)C(=O)[C@H](C)C[C@H](C)/C=C/C=C/C=C/1C | HPLC-MS/MS | Japanese patients, whole blood | oral, 40 mg, day 1, cycle 1, geometric mean | 187 ng/mL
Cc1cc(Nc2cc3ncccc3c(N[C@@H]3C[C@H]4CC[C@@H](C3)N4CCC#N)n2)n[nH]1 |  | pregnant rabbit, maternal plasma | oral, 10 mg/kg/day, gestation day 7 | 7.67 ng/mL
CN[C@H](CC(C)C)C(=O)N[C@H]1C(=O)N[C@@H](CC(N)=O)C(=O)N[C@H]2C(=O)N[C@H]3C(=O)N[C@H](C(=O)N[C@H](C(=O)O)c4cc(O)cc(O)c4-c4cc3ccc4O)[C@H](O)c3ccc(c(Cl)c3)Oc3cc2cc(c3O[C@@H]2O[C@H](CO)[C@@H](O)[C@H](O)[C@H]2O[C@H]2C[C@](C)(N)[C@H](O)[C@H](C)O2)Oc2ccc(cc2Cl)[C@H]1O |  | pig (Danish Landrace), plasma, free concentration | iv infusion, 1000 mg over 100 min, added: meropenem co-administered | 35000 ng/mL
C=C(C)[C@@H]1CC[C@]2(NCCN3CCS(=O)(=O)CC3)CC[C@]3(C)[C@H](CC[C@@H]4[C@@]5(C)CC=C(C6=CC[C@@](CF)(C(=O)O)CC6)C(C)(C)[C@@H]5CC[C@]43C)[C@@H]12 |  | HIV-1-positive treatment-naive adults, plasma | oral, 40 mg single dose, day 1, with food | 230 ng/mL
CO/N=C1\C[C@]2(C[C@@H]3C[C@@H](C/C=C(\C)C[C@@H](C)/C=C/C=C4\CO[C@@H]5[C@H](O)C(C)=C[C@@H](C(=O)O3)[C@]45O)O2)O[C@H](/C(C)=C/C(C)C)[C@H]1C |  | parasitized Corriedale lambs, plasma | oral, 0.2 mg/kg | 13.1 ± 2.53 ng/mL
Cc1nc(-c2ccc(OCC(C)C)c(C#N)c2)sc1C(=O)O |  | healthy men, plasma | oral, 40 mg once daily, day 14, arithmetic mean, added: verinurad 10 mg | 664 ng/mL
CS(=O)(=O)c1ccc([C@@H](O)[C@@H](CF)NC(=O)C(Cl)Cl)cc1 |  | chicken, HY-Line Brown hens, plasma | oral, 20 mg/kg | 7350 ± 1310 ng/mL
CCCN1CC(c2ccc(S(C)(=O)=O)cc2)=C(c2ccc(C)cc2)C1=O |  | healthy Chinese, elderly, plasma | oral, 100 mg | 15 ng/mL
Cc1ccc(NC(=O)c2ccc(CN3CCN(C)CC3)cc2)cc1Nc1nccc(-c2cncc(-c3oncc3C)c2)n1 |  | healthy volunteers, plasma | oral, 12.5 mg once daily, day 1, 7-day dosing, mean | 538 ng/mL
O=C(c1cc(Cc2n[nH]c(=O)c3ccccc23)ccc1F)N1CCN(C(=O)C2CC2)CC1 |  | cancer patients | oral, 400 mg twice daily, day 1 | 5100 ± 1700 ng/mL
C[C@H]1Oc2cc(cnc2N)-c2c(nn(C)c2C#N)CN(C)C(=O)c2ccc(F)cc21 |  | healthy adults | oral solution, 100 mg single dose, adjusted geometric mean | 692 ng/mL
CCC[C@H](N[C@@H](C)C(=O)N1[C@H](C(=O)O)C[C@@H]2CCCC[C@@H]21)C(=O)OCC |  | healthy Chinese volunteers, whole blood | oral, 4 mg, fasting, added: indapamide 1.25 mg | 30.9 ± 10.3 ng/mL
CC(C)(Sc1ccncc1-c1ccc(C#N)c2ccccc12)C(=O)O |  | male, plasma | oral, 15 mg, mild renal impairment, fasted | 25.6 ng/mL
O=C(O)C[C@H](O)C[C@H](O)/C=C/c1c(C2CC2)nc2ccccc2c1-c1ccc(F)cc1 |  | healthy Chinese female volunteers, plasma | oral, 2 mg once daily, multiple dose | 98.8 ng/mL
N[C@@H](CC(=O)N1CCn2c(nnc2C(F)(F)F)C1)Cc1cc(F)c(F)cc1F |  | healthy Korean subjects, plasma | oral, 100 mg single dose, ABCB1 G2677T/A GA | 470 ± 100 ng/mL
